Results from different studies.
± marks the error that the study gave.
HY5: HY5 1-158 (Solanum lycopersicum, UniProt Q9SM50)
Chain of UniProt Q9SM50 (whole entry, looked up): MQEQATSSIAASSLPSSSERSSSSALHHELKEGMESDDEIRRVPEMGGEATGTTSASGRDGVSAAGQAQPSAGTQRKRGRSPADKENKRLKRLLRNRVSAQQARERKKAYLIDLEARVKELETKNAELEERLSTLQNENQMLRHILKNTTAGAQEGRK
Fibroin-modulator-binding protein-1: Fibroin-modulator-binding protein-1 99-193 (Bombyx mori, UniProt Q5FBS0)
LHY full length assumed: LHY full length assumed (Arabidopsis thaliana, UniProt Q6R0H1)
Chain of UniProt Q6R0H1 (whole entry, looked up): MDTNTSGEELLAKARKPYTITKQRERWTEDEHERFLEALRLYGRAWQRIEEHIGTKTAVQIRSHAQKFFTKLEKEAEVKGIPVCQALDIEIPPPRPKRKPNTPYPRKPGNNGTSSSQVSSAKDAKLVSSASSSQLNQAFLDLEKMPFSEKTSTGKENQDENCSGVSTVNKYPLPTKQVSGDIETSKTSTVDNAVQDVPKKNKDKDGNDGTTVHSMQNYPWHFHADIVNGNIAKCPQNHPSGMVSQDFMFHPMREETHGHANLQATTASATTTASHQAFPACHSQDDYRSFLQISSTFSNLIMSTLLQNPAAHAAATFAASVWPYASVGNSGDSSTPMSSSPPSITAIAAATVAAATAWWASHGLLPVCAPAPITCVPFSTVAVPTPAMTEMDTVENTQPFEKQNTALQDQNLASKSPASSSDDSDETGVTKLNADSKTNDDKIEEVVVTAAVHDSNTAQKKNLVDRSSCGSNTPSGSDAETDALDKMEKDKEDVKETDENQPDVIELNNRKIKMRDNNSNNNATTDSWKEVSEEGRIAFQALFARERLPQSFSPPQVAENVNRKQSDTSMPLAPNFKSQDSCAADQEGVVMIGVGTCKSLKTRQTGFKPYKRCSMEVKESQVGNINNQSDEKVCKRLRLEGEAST
T1: Yku70/Yku80 (Saccharomyces cerevisiae); chain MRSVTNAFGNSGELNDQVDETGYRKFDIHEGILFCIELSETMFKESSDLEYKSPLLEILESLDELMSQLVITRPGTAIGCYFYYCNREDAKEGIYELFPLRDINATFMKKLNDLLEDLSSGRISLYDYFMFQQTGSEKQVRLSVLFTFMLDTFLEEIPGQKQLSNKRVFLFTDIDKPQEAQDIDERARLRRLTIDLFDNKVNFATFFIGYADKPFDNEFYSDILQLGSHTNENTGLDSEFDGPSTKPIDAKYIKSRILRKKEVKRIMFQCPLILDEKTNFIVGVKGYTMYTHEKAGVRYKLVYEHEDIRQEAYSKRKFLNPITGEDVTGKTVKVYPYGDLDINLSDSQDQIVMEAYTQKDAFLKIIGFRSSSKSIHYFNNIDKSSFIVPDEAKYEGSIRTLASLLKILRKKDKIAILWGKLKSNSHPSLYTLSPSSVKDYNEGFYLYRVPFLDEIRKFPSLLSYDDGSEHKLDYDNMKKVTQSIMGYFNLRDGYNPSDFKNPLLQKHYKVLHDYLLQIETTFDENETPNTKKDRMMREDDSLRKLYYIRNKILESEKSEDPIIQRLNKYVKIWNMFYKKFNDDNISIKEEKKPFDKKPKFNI; chain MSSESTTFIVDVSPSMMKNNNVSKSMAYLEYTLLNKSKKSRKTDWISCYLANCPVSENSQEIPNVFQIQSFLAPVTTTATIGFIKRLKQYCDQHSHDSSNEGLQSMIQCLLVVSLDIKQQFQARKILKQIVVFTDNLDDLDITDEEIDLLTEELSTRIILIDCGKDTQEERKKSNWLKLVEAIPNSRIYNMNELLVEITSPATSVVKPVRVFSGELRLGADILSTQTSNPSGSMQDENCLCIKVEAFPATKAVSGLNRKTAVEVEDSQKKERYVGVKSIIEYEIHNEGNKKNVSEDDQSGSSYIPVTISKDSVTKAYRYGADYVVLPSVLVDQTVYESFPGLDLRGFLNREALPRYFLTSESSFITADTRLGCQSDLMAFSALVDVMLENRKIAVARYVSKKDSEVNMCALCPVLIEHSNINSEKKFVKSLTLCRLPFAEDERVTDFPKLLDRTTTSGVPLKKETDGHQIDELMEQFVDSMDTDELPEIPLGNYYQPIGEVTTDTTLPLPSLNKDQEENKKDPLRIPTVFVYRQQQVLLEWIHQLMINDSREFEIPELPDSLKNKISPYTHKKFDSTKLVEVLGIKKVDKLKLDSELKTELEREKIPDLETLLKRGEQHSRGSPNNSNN
Chain of UniProt P60842 (whole entry, looked up): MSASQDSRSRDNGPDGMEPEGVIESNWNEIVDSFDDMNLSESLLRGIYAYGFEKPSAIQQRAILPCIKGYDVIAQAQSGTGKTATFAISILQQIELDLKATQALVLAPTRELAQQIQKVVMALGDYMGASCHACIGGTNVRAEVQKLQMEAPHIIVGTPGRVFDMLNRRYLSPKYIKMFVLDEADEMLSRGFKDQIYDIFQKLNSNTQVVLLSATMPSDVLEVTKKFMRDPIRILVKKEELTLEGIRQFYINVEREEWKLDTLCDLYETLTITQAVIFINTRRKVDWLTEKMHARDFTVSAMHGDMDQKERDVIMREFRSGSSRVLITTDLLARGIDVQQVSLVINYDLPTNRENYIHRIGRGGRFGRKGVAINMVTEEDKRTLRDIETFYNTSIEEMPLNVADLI
Chain of UniProt O75469 (whole entry, looked up): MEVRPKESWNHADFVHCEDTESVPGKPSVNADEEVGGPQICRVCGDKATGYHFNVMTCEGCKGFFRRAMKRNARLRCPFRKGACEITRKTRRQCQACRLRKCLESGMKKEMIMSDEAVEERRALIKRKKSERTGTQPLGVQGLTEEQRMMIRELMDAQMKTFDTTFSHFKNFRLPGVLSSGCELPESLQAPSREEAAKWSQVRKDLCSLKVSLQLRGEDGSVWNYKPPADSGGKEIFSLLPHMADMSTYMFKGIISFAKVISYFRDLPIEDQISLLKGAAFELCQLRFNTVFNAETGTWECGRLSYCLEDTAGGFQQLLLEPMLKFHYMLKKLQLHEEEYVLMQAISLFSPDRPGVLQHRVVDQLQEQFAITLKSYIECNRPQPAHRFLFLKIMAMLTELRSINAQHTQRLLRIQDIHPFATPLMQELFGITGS
Chain of UniProt P05845 (whole entry, looked up): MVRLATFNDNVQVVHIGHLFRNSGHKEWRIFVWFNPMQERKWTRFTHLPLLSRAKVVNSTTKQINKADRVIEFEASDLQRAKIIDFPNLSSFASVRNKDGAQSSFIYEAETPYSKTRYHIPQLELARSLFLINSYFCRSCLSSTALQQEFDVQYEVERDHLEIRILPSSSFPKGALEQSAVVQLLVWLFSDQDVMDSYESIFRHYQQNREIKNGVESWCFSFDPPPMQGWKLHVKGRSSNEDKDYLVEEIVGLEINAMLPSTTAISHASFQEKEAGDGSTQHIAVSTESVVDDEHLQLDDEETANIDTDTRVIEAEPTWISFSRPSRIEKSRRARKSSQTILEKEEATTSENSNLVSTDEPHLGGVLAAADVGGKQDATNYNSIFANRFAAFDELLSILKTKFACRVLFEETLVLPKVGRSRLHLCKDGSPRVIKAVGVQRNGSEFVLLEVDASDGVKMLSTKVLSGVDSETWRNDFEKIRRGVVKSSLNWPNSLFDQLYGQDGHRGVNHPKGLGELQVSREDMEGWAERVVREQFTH
Chain of UniProt Q13IY4 (whole entry, looked up): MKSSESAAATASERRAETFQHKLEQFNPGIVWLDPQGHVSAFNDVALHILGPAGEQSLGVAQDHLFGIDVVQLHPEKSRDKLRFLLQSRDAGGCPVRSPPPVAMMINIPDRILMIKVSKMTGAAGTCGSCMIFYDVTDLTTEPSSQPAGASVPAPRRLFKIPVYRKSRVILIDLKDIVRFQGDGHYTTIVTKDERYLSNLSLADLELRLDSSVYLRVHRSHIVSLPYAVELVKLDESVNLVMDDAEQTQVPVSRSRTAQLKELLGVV
Chain of UniProt P55265 (whole entry, looked up): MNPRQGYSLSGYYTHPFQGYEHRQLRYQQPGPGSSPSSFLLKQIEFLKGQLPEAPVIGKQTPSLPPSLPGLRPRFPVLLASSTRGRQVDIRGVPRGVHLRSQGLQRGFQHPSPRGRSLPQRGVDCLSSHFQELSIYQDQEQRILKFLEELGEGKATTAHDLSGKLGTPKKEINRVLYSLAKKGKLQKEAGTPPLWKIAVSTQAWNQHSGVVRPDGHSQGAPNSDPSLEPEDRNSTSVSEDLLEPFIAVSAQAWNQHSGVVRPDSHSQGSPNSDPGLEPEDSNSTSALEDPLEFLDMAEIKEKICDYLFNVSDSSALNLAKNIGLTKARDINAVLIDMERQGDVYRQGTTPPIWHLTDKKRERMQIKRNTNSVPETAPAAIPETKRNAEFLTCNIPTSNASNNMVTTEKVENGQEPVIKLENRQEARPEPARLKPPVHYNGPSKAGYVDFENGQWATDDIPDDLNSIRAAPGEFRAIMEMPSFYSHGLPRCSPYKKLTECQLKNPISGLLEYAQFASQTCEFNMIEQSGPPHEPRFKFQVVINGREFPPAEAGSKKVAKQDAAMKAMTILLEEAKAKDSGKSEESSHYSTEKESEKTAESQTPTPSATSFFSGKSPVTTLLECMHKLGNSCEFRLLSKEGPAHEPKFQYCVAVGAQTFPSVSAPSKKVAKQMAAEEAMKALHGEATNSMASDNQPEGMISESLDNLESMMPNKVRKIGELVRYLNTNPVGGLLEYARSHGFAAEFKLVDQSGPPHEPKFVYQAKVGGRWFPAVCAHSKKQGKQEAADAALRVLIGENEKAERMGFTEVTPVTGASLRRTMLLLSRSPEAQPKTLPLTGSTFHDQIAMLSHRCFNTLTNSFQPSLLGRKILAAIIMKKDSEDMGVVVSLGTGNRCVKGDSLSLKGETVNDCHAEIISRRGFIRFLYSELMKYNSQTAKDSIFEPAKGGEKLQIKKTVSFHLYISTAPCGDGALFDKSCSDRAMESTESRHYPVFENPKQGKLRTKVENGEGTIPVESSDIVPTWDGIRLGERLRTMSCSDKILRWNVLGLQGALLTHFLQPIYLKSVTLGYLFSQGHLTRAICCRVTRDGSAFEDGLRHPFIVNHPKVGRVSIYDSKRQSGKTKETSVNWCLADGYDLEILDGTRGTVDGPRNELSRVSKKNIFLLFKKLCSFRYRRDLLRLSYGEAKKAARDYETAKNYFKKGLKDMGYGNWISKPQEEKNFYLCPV
Chain of UniProt P33240 (whole entry, looked up): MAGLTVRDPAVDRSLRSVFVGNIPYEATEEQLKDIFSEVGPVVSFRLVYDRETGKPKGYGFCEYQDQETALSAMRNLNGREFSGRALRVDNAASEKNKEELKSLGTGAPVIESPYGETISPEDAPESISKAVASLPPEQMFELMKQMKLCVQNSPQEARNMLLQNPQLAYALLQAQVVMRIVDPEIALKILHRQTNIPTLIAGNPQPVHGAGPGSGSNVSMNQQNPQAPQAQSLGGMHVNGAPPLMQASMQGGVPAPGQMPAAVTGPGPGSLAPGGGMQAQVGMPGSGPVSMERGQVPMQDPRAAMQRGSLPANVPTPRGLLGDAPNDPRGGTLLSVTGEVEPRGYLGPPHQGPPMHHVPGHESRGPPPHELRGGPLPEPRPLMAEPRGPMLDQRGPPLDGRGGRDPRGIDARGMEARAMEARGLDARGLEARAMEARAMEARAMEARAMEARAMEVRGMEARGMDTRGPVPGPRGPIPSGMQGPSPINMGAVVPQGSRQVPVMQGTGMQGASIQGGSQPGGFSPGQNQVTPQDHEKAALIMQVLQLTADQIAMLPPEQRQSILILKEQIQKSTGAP
Chain of UniProt P32787 (whole entry, looked up): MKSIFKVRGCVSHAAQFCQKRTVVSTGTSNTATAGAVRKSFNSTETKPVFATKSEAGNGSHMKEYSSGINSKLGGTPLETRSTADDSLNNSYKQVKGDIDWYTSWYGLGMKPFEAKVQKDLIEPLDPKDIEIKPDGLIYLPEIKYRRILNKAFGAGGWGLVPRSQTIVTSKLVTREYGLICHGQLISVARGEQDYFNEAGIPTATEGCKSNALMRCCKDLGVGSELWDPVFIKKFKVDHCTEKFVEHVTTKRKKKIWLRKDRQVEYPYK
Chain of UniProt P01375 (whole entry, looked up): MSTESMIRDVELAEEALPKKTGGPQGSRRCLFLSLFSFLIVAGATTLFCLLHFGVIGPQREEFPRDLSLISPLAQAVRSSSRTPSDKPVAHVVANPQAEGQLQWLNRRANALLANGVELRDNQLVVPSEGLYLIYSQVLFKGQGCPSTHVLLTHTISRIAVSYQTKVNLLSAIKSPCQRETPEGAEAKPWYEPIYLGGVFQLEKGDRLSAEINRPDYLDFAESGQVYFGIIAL

For `ATACATGCAAACGTTCTTTTAAAA (dsDNA)`, binding read “binds” (HY5 full length assumed (Solanum lycopersicum, UniProt Q9SM50); EMSA; double-stranded DNA, one strand shown).
`GTTAATGTTGGCTTTTAAGTCGCTACGAACAAATCTACAAAAGTTTTACTTATAAATTA (dsDNA)`: binding “binds” (CCA1 full length assumed (Oryza sativa, UniProt A0A0P0XBU0); EMSA; double-stranded DNA, one strand shown).
`GGTTAGGGTTAG (ssDNA; 5'-phosphate)` — result for binding: “no binding” (POT1 1-299 F62A (Homo sapiens, UniProt Q9NUX5); EMSA; single-stranded DNA).
`AAGGTGTGTGGGTGTGGTAATC (dsDNA)`: binding “binds” (RAP1/Yku70/Yku80 (Saccharomyces cerevisiae); EMSA; double-stranded DNA, one strand shown).
`TTGATAAGAGGTCATTTTTGCGGATGGCTTAGAGCTTAATTGCTGAATCTGGTGCTGTAGCTCAACATGTTTTAA (ssDNA)` — result for binding: “binds” (MGM101 23-269 (Saccharomyces cerevisiae, UniProt P32787); native MS; single-stranded DNA).
Under binding, `TTTTTGGGGAGGGTGGGGAGGGTGGGGAAGGTTTTT (G-quadruplex DNA (Homo sapiens); intramolecular G4)` is recorded as “binds” (NCL fragment (Homo sapiens); DMS footprinting; folded DNA; KCl 140 mM).
Under binding, `GGACGGAAAGACCCCGUGG (ssRNA)` is recorded as “binds” (AGER 23-342 (Homo sapiens, UniProt Q15109); EMSA; RNA).
`AGATTTGCTCTCTGTCACAGGTGTCTCCGT (dsDNA)` — result for binding: “no binding” (Opaque endosperm 11 1-624 (Zea mays, UniProt A0A1D6EAS7); EMSA; double-stranded DNA, one strand shown; with: Mg2+).
For `TGTTGTGTGGAATTGTGAGCGGATAACAATTTCACACAGG (dsDNA (Escherichia coli); blunt)`, binding read “binds” (lacI full length assumed D149C (Escherichia coli, UniProt P03023); filter binding; double-stranded DNA, one strand shown).
For `AGAGAGAGAG (ssRNA)`, binding read “binds” (EIF4A1 19-406 (Homo sapiens, UniProt P60842); X-ray crystallography; RNA; with: AMPPNP, silvestrol).
`UGUACAUA (ssRNA)` — result for binding: “binds” (pum 1091-1426 (Drosophila melanogaster, UniProt P25822); crystal structure; RNA).
`GCAGGAGAAACACGTGTTGCCACTTT (dsDNA)`: binding “binds” (HY5; EMSA; double-stranded DNA, one strand shown).
For `AAAAAAAA (ssRNA)`, binding read “no binding” (NCL 300-650 (Homo sapiens, UniProt P19338); protein microarray; RNA).
`CCGCCGCCGCCGCCGCCGCCGCCGCCGCCGCCGCCGCCG (ssRNA; 39 nt)` — result for binding: “binds” (NR1I2 (Homo sapiens, UniProt O75469); EMSA; RNA; 200 nM RNA).
For `ACCAAGTGGGATGCGGAGCCGCCGCCGCCGCCG (dsDNA; blunt)`, binding read “binds” (WT1 zinc finger domain 323-435 (Homo sapiens); EMSA; double-stranded DNA, one strand shown).
`AACCAACCAACC (dsDNA)` has a Kd of 3.06 ± 0.458 µM (Fibroin-modulator-binding protein-1; ITC; double-stranded DNA, one strand shown).
For `GGCGGCGGCATTGTCCGGCGCGCGG (dsDNA)`, binding read “binds” (Sox17 66-144 (Mus musculus, UniProt Q61473); EMSA; double-stranded DNA, one strand shown).
Under binding, `GUGUGUGUGUGUGUGU (ssRNA)` is recorded as “binds” (CSTF2 1-107 (Homo sapiens, UniProt P33240); NMR titration; RNA; 27 °C).
For `CATAATGTAATATATAATAATCATATAGTAATATAATTTTCATTC (dsDNA)`, binding read “no binding” (gbp (Glycine max, UniProt Q8LKV1); EMSA; double-stranded DNA, one strand shown).
For `DNA 1 ATTGCCGATGC / DNA 2 CCGCAGGCTCC / DNA 3 GGAGCCTGCGGGCATCGGCAAT (dsDNA; blunt, internal nick)`, binding read “binds” (ddrC 1-231 (Deinococcus radiodurans, UniProt Q9RYE6); EMSA; double-stranded DNA; 100 nM).
For `TGTCACGTAGATCGAAACGGCATAGACAATTACTTA (dsDNA)`, binding read “no binding” (ERF-D2 full length assumed (Solanum lycopersicum, UniProt A0A3Q7JX06); EMSA; double-stranded DNA, one strand shown).
`TCGATTTTCGCGCAAATT (dsDNA; blunt)`: binding “no binding” (rcoM2 full length assumed (Paraburkholderia xenovorans, UniProt Q13IY4); fluorescence anisotropy; double-stranded DNA, one strand shown; Fe(II)-CO).
`DNA 1 GCAGCCAACTAAACTA / DNA 2 TAGTTTAGTTGGCTG (dsDNA; 5' 1 nt G overhang)`: binding “binds” (tnsE 379-538 (Escherichia coli, UniProt P05845); EMSA; double-stranded DNA).
`ATAAGTCACATGATGATATTTGATTTTATTATATTTTTAAAAAAAGTAAAAAATAAAAAGTAGTTTATTTTTAAAAAATAAAATTTAAAATATTTCACAAAATGATTTCCGAA (dsDNA)`: binding “no binding” (CENP-I 1-229 K189E/K209E/R216D/R225D/R226D (Thermochaetoides thermophila, UniProt G0SFF7); EMSA; double-stranded DNA, one strand shown).
Under binding, `ATTTTTTT (ssDNA)` is recorded as “binds” (Rc3h1 411-454 (Mus musculus, UniProt Q4VGL6); NMR; single-stranded DNA).
`CTCATTACACAGTCTTAGTCACATCGGTGAAAATATCAATTAATATTCCCCAGAAAGTTG (dsDNA)`: binding “binds” (LHY full length assumed; EMSA; double-stranded DNA, one strand shown).
`AAGGTGTGTGGGTGTGA (dsDNA)` — result for binding: “binds” (T1, Yku70/Yku80 (Saccharomyces cerevisiae); EMSA; double-stranded DNA, one strand shown).
For `CCACGACAGTTACGTATGAACCTTTG (dsDNA)`, binding read “binds” (HY5; EMSA; double-stranded DNA, one strand shown).
For `CTCTCTCCATTCCCTCCTCCTTTATTTCCTCTCTCCTCTCTCCCCTC (dsDNA)`, binding read “binds” (C2H2-type domain-containing protein full length assumed (Triticum aestivum, UniProt A0A3B6KUA9); EMSA; double-stranded DNA, one strand shown; with: ZnCl2).
`CACUAUCGGAAAAAGGGCGACACGGAUAUGUU (ssRNA)` — result for binding: “binds” (SAMHD1 full length assumed (Homo sapiens, UniProt Q9Y3Z3); fluorescence anisotropy; RNA).
For `CCAACCAACCAA (dsDNA)`, the Kd was 3.82 ± 0.16 µM (Fibroin-modulator-binding protein-1; ITC; double-stranded DNA, one strand shown).
`TGCGATTCGTTGTATCCGTAACATTTAACAATCTCGTTTTGTTTTTCTTCTGTTCCTCTA (dsDNA)`: binding “binds” (LHY full length assumed; EMSA; double-stranded DNA, one strand shown).
For `TGGTGGATGGCGCAGTCGGCGACAA (ssDNA; 5'-amine, G-quadruplex)`, binding read “binds” (TNF 77-233 (Homo sapiens, UniProt P01375); field-effect transistor; single-stranded DNA; LOD, Hill-Langmuir fit).
`CGGGAACUCGCGUAGACACGCCCG (structured RNA)`: binding “binds” (RELA/NFKB1 RHR domains (Homo sapiens); EMSA; folded RNA).
Under binding, `ACCAAGCGGGATGCTGAGCCGCCGCCGCCGCCG (dsDNA; blunt)` is recorded as “no binding” (WT1 zinc finger domain 323-435 (Homo sapiens); EMSA; double-stranded DNA, one strand shown).
`TCCACGATGTAGGATCCACATGAGCGCTCCTGTTACCCTG (ssDNA)` — result for binding: “binds” (ALB 25-609 (Homo sapiens, UniProt P02768); capillary electrophoresis; single-stranded DNA).
`CTTCTTTATTTTATTGTCTGAACGAATAAAAATCCATTATCT (dsDNA)`: binding “no binding” (Transcription factor RF2b full length assumed (Ziziphus jujuba, UniProt A0A6P3ZIC3); EMSA; double-stranded DNA, one strand shown).
For `TATCGAGTTGCGCCCTCCACTCCTCGGTG (dsDNA)`, binding read “binds” (Ethylene-responsive transcription factor 13 (Nicotiana attenuata, UniProt A0A1J6JM52); EMSA; double-stranded DNA, one strand shown).
For `GCCAAUUUCGCCGGCGUACGGCCACGAUCGGGAGGGUGGGAAUCUCGGGGGUCUUCCGAUCCUAAUCCAUGAUGAUUACGACCUGAGUCACUAAAGACGAUGGCAUGAUGAUCCGGCGAUGAAAAA (RNA (Bombyx mori); single stem-loop)`, binding read “binds” (Reverse transcriptase-like protein 275-1114 R310A/R311A/Q318A/D996A (Bombyx mori, UniProt V9H052); EMSA; folded RNA).
`CGCGCG (dsRNA; blunt self-complementary duplex)` — result for binding: “binds” (ADAR 133-199 (Homo sapiens, UniProt P55265); CD; double-stranded RNA, one strand shown).
Under binding, `GGTGGTGGTGGTGGTGGT (ssDNA)` is recorded as “binds” (recA full length assumed F204I (Escherichia coli, UniProt P0A7G6); fluorescence anisotropy; single-stranded DNA; with: ATPγS).

A few entries again:
`GGTTAGGGTTAG (ssDNA; 5'-phosphate)` — result for binding: “no binding” (POT1 1-299 F62A (Homo sapiens, UniProt Q9NUX5); EMSA; single-stranded DNA).
`CTTCTTTATTTTATTGTCTGAACGAATAAAAATCCATTATCT (dsDNA)`: binding “no binding” (Transcription factor RF2b full length assumed (Ziziphus jujuba, UniProt A0A6P3ZIC3); EMSA; double-stranded DNA, one strand shown).
`CGGGAACUCGCGUAGACACGCCCG (structured RNA)`: binding “binds” (RELA/NFKB1 RHR domains (Homo sapiens); EMSA; folded RNA).
